{"data": "Measurements from different studies", "note": "Each line is one published result; not all experiments were run side by side."}
{"Structure (SMILES)": "Cc1cc(C)c(C#N)c(SCC(=O)c2cccs2)n1", "matrix": "aqueous buffer", "pH": "pH 7.4", "temperature": "25 °C", "solubility": "< 5 µM"}
{"Structure (SMILES)": "COc1cc(Cc2cnc(N)nc2N)cc(OC)c1OC", "method": "shake flask", "matrix": "aqueous buffer", "pH": "pH 6.8", "solubility": "0.223 mg/mL"}
{"Structure (SMILES)": "Cc1[nH]c(C(=O)Nc2ccc(-c3n[nH]c(=O)o3)cc2N2CCC[C@H](N)C2)c(Cl)c1Cl.Cl", "matrix": "PBS", "time": "24 h", "pH": "pH 7.4", "temperature": "25 °C", "solubility": "0.031 mg/mL"}
{"Structure (SMILES)": "CCCN(Cc1ccccc1OC)C(=O)c1cc(C)c(C)s1", "matrix": "aqueous buffer", "time": "12 h", "pH": "pH 7.4", "temperature": "37 °C", "solubility": "0.501 mg/mL"}
{"Structure (SMILES)": "C[N+](C)(C)CCO.O=C([O-])[C@H](O)Cc1ccccc1", "matrix": "water", "solubility": "1490 mg/mL"}
{"Structure (SMILES)": "Cc1cc(C)c(C(N)=O)c(SCC(=O)c2ccc(F)cc2)n1", "matrix": "aqueous buffer", "pH": "pH 7.4", "temperature": "25 °C", "solubility": "> 150 µM"}
{"Structure (SMILES)": "COc1ccc2c(O[C@@H]3C[C@H]4C(=O)N[C@]5(C(=O)NS(=O)(=O)C6CC6)C[C@H]5/C=C\\CCCCN(C)C(=O)[C@@H]4C3)cc(-c3nc(C(C)C)cs3)nc2c1C", "matrix": "aqueous buffer", "pH": "pH 7.4", "solubility": "19 µM"}
{"Structure (SMILES)": "CC(/C=C/C=C(\\C)C(=O)O)=C\\C=C\\C=C(C)\\C=C\\C=C(/C)C(=O)O", "method": "shake flask", "matrix": "simulated intestinal fluid", "time": "1 h", "pH": "pH 6.8", "temperature": "37 °C", "solubility": "0.012 mg/mL"}
{"Structure (SMILES)": "Cc1cc(C)c(C#N)c(SCC(=O)c2ccc(F)cc2)n1", "matrix": "aqueous buffer", "pH": "pH 7.4", "temperature": "25 °C", "solubility": "< 5 µM"}
{"Structure (SMILES)": "CN(C)C(=O)c1cc2cnc(Nc3ccc(N4CCNCC4)cn3)nc2n1C1CCCC1", "matrix": "aqueous buffer", "time": "24 h", "pH": "pH 6.8", "temperature": "37 °C", "solubility": "0.8 mg/mL"}
{"Structure (SMILES)": "CCCN(Cc1ccccc1OC)C(=O)c1cccc(Br)c1", "matrix": "aqueous buffer", "time": "12 h", "pH": "pH 7.4", "temperature": "37 °C", "solubility": "0.036 mg/mL"}
{"Structure (SMILES)": "C=C[C@@H]1C[C@]1(NC(=O)[C@@H]1C[C@@H](Oc2ncc(OC)c3ccc(Cl)cc23)CN1C(=O)[C@@H](NC(=O)OC(C)(C)C)C(C)(C)C)C(=O)NS(=O)(=O)C1CC1", "matrix": "aqueous buffer", "pH": "pH 7.4", "solubility": "160 µM"}
{"Structure (SMILES)": "Cc1cc(C)c(C#N)c(SCC(=O)c2ccsc2)n1", "matrix": "aqueous buffer", "pH": "pH 7.4", "temperature": "25 °C", "solubility": "< 5 µM"}
{"Structure (SMILES)": "O=c1[nH]cc(F)c(=O)[nH]1", "method": "shake flask", "matrix": "aqueous buffer", "pH": "pH 6.8", "solubility": "6.83 mg/mL"}
{"Structure (SMILES)": "Cc1cc(C)c(C#N)c(SCC(=O)c2ccc(F)cc2F)n1", "matrix": "aqueous buffer", "pH": "pH 7.4", "temperature": "25 °C", "solubility": "< 5 µM"}
{"Structure (SMILES)": "CCCN(Cc1ccccc1OC)C(=O)c1cccc(C(F)(F)F)c1", "matrix": "aqueous buffer", "time": "12 h", "pH": "pH 7.4", "temperature": "37 °C", "solubility": "0.9 mg/mL"}
{"Structure (SMILES)": "COc1ccc(-c2oc3ccc(-c4ccc5c(c4)OCO5)nc3c2C#CC2(O)CCCCC2)cc1", "matrix": "aqueous buffer", "solubility": "< 0.001 mg/mL"}
{"Structure (SMILES)": "CCOC(=O)c1cn(CC)c2cc(N3CCC(Cc4ccccc4)CC3)c(F)cc2c1=O", "method": "shake flask", "matrix": "PBS", "time": "2 h", "pH": "pH 7.4", "temperature": "25 °C", "solubility": "~10 µM"}
{"Structure (SMILES)": "Cc1[nH]c(C(=O)Nc2ccc(C(=O)O)cc2N2CCC[C@H](N)C2)c(Cl)c1Cl.Cl", "matrix": "PBS", "time": "24 h", "pH": "pH 7.4", "temperature": "25 °C", "solubility": "0.024 mg/mL"}
{"Structure (SMILES)": "COc1ccccc1C(=O)CSc1nc(C)cc(C)c1C#N", "matrix": "aqueous buffer", "pH": "pH 7.4", "temperature": "25 °C", "solubility": "< 5 µM"}
{"Structure (SMILES)": "C[C@H]1CN(c2n[nH]c3nc(N[C@H]4CC[C@H](NS(=O)(=O)CCC(F)(F)F)CC4)ncc23)CCO1", "matrix": "FaSSIF", "time": "4 h", "pH": "pH 6.5", "temperature": "37 °C", "solubility": "0.017 mg/mL"}
{"Structure (SMILES)": "CCN(Cc1ccccc1OC)C(=O)c1cc(C)c(C)s1", "matrix": "aqueous buffer", "time": "12 h", "pH": "pH 7.4", "temperature": "37 °C", "solubility": "5.92 mg/mL"}
{"Structure (SMILES)": "Cc1cc(C)c(C#N)c(SCC(=O)N2CCOCC2)n1", "matrix": "aqueous buffer", "pH": "pH 7.4", "temperature": "25 °C", "solubility": "113 µM"}
{"note": "A few entries again:"}
{"Structure (SMILES)": "O=c1[nH]cc(F)c(=O)[nH]1", "method": "shake flask", "matrix": "aqueous buffer", "pH": "pH 6.8", "solubility": "6.83 mg/mL"}
{"Structure (SMILES)": "CCCN(Cc1ccccc1OC)C(=O)c1cccc(C(F)(F)F)c1", "matrix": "aqueous buffer", "time": "12 h", "pH": "pH 7.4", "temperature": "37 °C", "solubility": "0.9 mg/mL"}
{"Structure (SMILES)": "CC(/C=C/C=C(\\C)C(=O)O)=C\\C=C\\C=C(C)\\C=C\\C=C(/C)C(=O)O", "method": "shake flask", "matrix": "simulated intestinal fluid", "time": "1 h", "pH": "pH 6.8", "temperature": "37 °C", "solubility": "0.012 mg/mL"}
